Measured values collected from several papers.
A part holds a random share of what one study measured. Values joined by “and” are separate records of one study, mostly repeats; a detail may differ.

Set 1
Target: Beta-2 adrenergic receptor (ADRB2, Homo sapiens, UniProt P07550)
Sequence of UniProt P07550 (whole entry, looked up): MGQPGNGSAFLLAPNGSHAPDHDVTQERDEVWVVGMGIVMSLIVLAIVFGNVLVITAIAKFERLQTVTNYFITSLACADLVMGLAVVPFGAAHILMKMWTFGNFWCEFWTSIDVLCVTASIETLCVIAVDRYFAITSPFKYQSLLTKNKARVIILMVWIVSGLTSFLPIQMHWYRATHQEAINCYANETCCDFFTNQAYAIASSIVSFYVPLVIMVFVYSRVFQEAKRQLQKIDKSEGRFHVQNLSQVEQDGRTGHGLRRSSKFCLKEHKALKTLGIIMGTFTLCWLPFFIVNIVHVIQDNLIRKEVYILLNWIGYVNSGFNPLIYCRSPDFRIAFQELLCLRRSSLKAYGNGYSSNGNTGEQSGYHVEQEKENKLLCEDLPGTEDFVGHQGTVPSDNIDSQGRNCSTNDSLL
Read-out: binding
Technique: radioligand binding
Tested at: 10 µM
The inhibition of `O=C(O)c1cc(-c2ccc(C3CCNCC3)cc2)c2ccc(-c3ccc(C(F)(F)F)cc3)cc2c1` is reported as 38.9%.
The inhibition of `O=C([C@H]1C[C@H](O)CN1c1ccc(Cl)cc1)N1CC2COCC(C1)N2Cc1ccc(Cl)cc1` is reported as -7.55%.
`Cc1c(NC(=O)c2cc(C(N)=O)nc3cc(F)ccc23)c(C(F)(F)F)nn1Cc1ccc(C(C)(C)C)cc1` gave an inhibition of 24.1%.
`O=C1CCc2cc(Nc3cc(OC4CCOCC4)c([N+](=O)[O-])cc3Cl)ccc2N1` gave an inhibition of -1.73%.
With `Cc1cc(-n2nc(Cc3cc(F)cc(C(F)(F)F)c3)nc2C)ccc1C(N)=O` the inhibition was -1.39%.
The inhibition of `CS(=O)(=O)NCC[C@H](NC(=O)c1cncc2c1cnn2-c1ccc(F)cc1)c1ccnc(S(C)(=O)=O)c1` is reported as -5.93%.
`C[C@H](NC(=O)c1cnc2n1[C@](C)(Cc1ccc(C#N)cc1)C(=O)N2c1cc(Cl)c(F)c(Cl)c1)C(=O)NC1(c2ccccn2)CC1` has an inhibition of -9.72%.
`Cc1c(N2CCCC2)nc2ccc(Br)cc2c1C(=O)NC[C@H](CCC(=O)O)c1ccccc1Cl` gave an inhibition of 19.9%.
`CCOC(=O)c1cc2cc(-c3cc(C(=O)NCc4ccc(C(=O)O)cc4)nn3C)ccc2[nH]1` gave an inhibition of -7.76%.
For `CNC(=O)Nc1ccc2c(c1)[C@]1(CC2)OC(=O)N(CC(=O)N(Cc2ccc(F)cc2)[C@@H](C)C(F)(F)F)C1=O`, the inhibition was 24.7%.
`CC(=O)Nc1c(F)cc(C(=O)N[C@H]2CC[C@H](O)CC2)cc1O[C@@H](C)c1ccccc1` has an inhibition of 28.1%.
`CC(=O)c1c(NS(C)(=O)=O)c2cc(-c3ccc(Cl)cc3)c(-c3ccc(Cl)cc3Cl)nc2n(C)c1=O` gave an inhibition of 5.51%.
`CC(C)CC(=O)N1CCc2nc(-c3ccc(Br)cc3)nc(N(C)Cc3ccccc3)c2C1` has an inhibition of 5.63%.
With `CN([C@@H]1CCc2c(CC(=O)O)c3cc(S(C)(=O)=O)ccc3n2C1)S(=O)(=O)c1ccc(F)cc1` the inhibition was 0.0525%.

Set 2
Target: Cyclin-dependent kinase 6, with cyclin D3 (CDK6, Homo sapiens, UniProt Q00534)
Sequence of UniProt Q00534 (whole entry, looked up): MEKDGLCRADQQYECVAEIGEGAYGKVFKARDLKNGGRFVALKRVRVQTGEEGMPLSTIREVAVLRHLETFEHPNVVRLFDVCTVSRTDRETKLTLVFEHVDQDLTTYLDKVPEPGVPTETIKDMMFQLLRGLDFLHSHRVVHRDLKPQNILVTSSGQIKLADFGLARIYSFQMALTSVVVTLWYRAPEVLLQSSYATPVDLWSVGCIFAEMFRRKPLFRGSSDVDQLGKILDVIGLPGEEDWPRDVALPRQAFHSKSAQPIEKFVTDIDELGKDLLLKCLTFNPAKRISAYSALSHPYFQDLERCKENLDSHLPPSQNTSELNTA
Read-out: enzyme activity
Mode: inhibitor
Tested at: 0.5 µM
Reference: control
With `CCN(CC)C(=O)c1ccc(Nc2nc(OCC3CCCCC3)c3[nH]cnc3n2)cc1` the remaining activity was 47.2%.
For `CN(C)C[C@H]1CCn2c(c(C3=C(c4cn(C)c5ccccc45)C(=O)NC3=O)c3ccccc32)C1`, the remaining activity was 95%.
`c1ccc(-c2cnc(Nc3ccc(OCCN4CCCC4)cc3)s2)cc1` has a remaining activity of 20.1%.
For `O=C(NC(NC(=S)Nc1ccc(F)c([N+](=O)[O-])c1)C(Cl)(Cl)Cl)C(c1ccccc1)c1ccccc1` (centres unmarked), the remaining activity was 99.3%.
The remaining activity of `CN([C@@H](Cc1ccc(OS(=O)(=O)c2cccc3cnccc23)cc1)C(=O)N1CCN(c2ccccc2)CC1)S(=O)(=O)c1cccc2cnccc12` is reported as 105%.
`COc1cc2ncnc(Nc3cccc(Cl)c3)c2cc1OC` has a remaining activity of 90.1%.
With `Cc1nc2cc3nc(-c4cccs4)cnc3cc2n1C` the remaining activity was 87.8%.
`N#Cc1c(NC(=O)c2cccc3ccccc23)sc2c1CCCC2` gave a remaining activity of 99%.
`CCN(CC)CCNC(=O)c1c(C)[nH]c(/C=C2\C(=O)Nc3ccc(Cl)cc32)c1C` has a remaining activity of 41.6%.
`O=C(Nc1cccc(Nc2nccc(Nc3cccc(C(F)(F)F)c3)n2)c1)C1CC1` has a remaining activity of 98.5%.
`Cc1cn(-c2cc(NC(=O)c3ccc(C)c(Nc4nccc(-c5cccnc5)n4)c3)cc(C(F)(F)F)c2)cn1` gave a remaining activity of 128%.
The remaining activity of `COc1cc2ncnc(Nc3ccc(O)c(Br)c3)c2cc1OC` is reported as 102%.
The remaining activity of `CCOc1nc(NC(=O)Cc2cc(OC)ccc2OC)cc(N)c1C#N` is reported as 98.6%.
For `Cn1nc2c3c(cccc31)C(=O)c1ccccc1-2`, the remaining activity was 101%.
`c1ccc(-c2[nH]ncc2-c2ccnc3ccccc23)nc1` has a remaining activity of 98.2%.
With `Cc1cc2ncc(-c3ccccc3)nc2cc1C` the remaining activity was 86.7%.
The remaining activity of `N#C/C(=C\c1ccc(O)c(O)c1)C(=O)NCc1ccccc1` is reported as 104%.
With `Ic1cccc(CSc2nnc(-c3ccncc3)o2)c1` the remaining activity was 102%.
The remaining activity of `O=C1C(Cl)=C(N2C(=O)CCC2=O)C(=O)c2ccccc21` is reported as 99.2%.
For `COc1cc2c(cc1OC)-c1[nH]nc(Nc3cccc(F)c3)c1C2`, the remaining activity was 99.5%.
`C[C@@H]1CCN(C(=O)CC#N)C[C@@H]1N(C)c1ncnc2[nH]ccc12` gave a remaining activity of 110%.
For `O=c1cc(-c2cccc3c2Sc2ccccc2S3)oc(N2CCOCC2)c1`, the remaining activity was 106%.
`CCN(CC)CCNC(=O)c1c(C)[nH]c(/C=C2\C(=O)Nc3ccc(F)cc32)c1C` has a remaining activity of 59.7%.

Set 3
Cell line: mouse MPNST tumor cells
Technique: high-content immunofluorescence imaging
Measured: nuclear SOX9
Tested at: 10 µM
Time: 12 h
Setting: mean of 2 replicates
Reference: DMSO control
Direction: higher = more nuclear SOX9
`O=c1[nH]c2cc(C(F)(F)F)c(N3CCOCC3)cc2n(CP(=O)(O)O)c1=O` — result for “nuclear SOX9 intensity”: 95.8 % of DMSO.
Under “nuclear SOX9 intensity”, `COC(=O)c1csc(C(=O)c2c[nH]c3ccccc23)n1` is recorded as 83.5 % of DMSO.
Under “nuclear SOX9 intensity”, `Nc1ccc(-c2cccc3c(=O)cc(N4CCOCC4)oc23)cc1` is recorded as 109 % of DMSO.
`CC(C)(C)n1nc(-c2cccc3ccccc23)c2c(N)ncnc21` — result for “nuclear SOX9 intensity”: 115 % of DMSO.
`CCn1cc(C(=O)O)c(=O)c2cc(F)c(N3CCNCC3)cc21`: “nuclear SOX9 intensity” 105 % of DMSO.
`CC(CCC(=O)O)C1CCC2C3C(O)CC4CC(O)CCC4(C)C3CCC12C` (centres unmarked) — result for “nuclear SOX9 intensity”: 96.2 % of DMSO.

Set 4
Structure (SMILES): CC(C)(C(=O)O)[C@H](NC(=O)Cc1cccc(I)c1)c1ccc2oc(=O)[nH]c2c1
Technique: Incucyte 3D growth
Tested at: 30 µM
Direction: higher = more growth
It gave 9.91e+07 a.u. and 9.99e+07 a.u. and 1.05e+08 a.u. and 8.71e+07 a.u. and 1.01e+08 a.u. and 1.2e+08 a.u. for spheroid area (A375; 168 h).
It gave 1.64e+09 a.u. and 1.57e+09 a.u. and 1.62e+09 a.u. and 1.55e+09 a.u. and 1.65e+09 a.u. for spheroid area (PC-9; 180 h).
The spheroid area was 1.94e+08 a.u. and 1.71e+08 a.u. and 1.68e+08 a.u. and 1.63e+08 a.u. and 1.85e+08 a.u. and 1.72e+08 a.u. (A375; 348.52 h).
The spheroid area was 1.45e+08 a.u. and 1.71e+08 a.u. and 1.51e+08 a.u. and 1.55e+08 a.u. and 1.39e+08 a.u. and 1.66e+08 a.u. (A375; 210.52 h).
It gave 7.13e+07 a.u. and 4.08e+07 a.u. and 3.2e+07 a.u. and 3.96e+07 a.u. and 4.33e+07 a.u. and 3.95e+07 a.u. for spheroid area (MEL-JUSO; 384.52 h).
It gave 5.03e+07 a.u. and 4.37e+07 a.u. and 3.97e+07 a.u. and 5.5e+07 a.u. and 4.04e+07 a.u. and 2.86e+07 a.u. for spheroid area (MEL-JUSO; 360.52 h).

Mixed results
`CC(C)C[C@@H]1NC(=O)[C@@H](N(C)C(=O)[C@H](CC2CCC2)NC(=O)[C@@H]2C[C@@H](F)CN2C(=O)C2(C(F)(F)F)CC(F)(F)C2)CCCCNC(=O)C2(CC2)NC(=O)[C@H](Cc2cc(Cl)ccc2Cl)N(C)C1=O` — result for “G0-G1 phase cells”: 50.8% and 45.7% (human CD34+ HSPC; EdU flow cytometry; 3000 nM, 24 h).
